Experimental data collected from several papers.
Protocols differ between the studies behind these lines. ± gives the spread as reported.

For COc1ncccc1-c1cnn2ccc(N3CCN(C(=O)OC(C)C)CC3)nc12, the drug concentration was 12 µM (rat, rotarod test, brain; 30 mg/kg, 180 min).
With Cc1ccc2ccccc2c1 the Vmax was 1370 pmol/min/mg (metabolism; pooled human liver microsomes; pH 7.4).
COc1cc2c(Oc3ccc4[nH]c(C)cc4c3F)ccnc2cc1OCC1(N)CC1 — result for “grade 1 or 2 Triglyceride elevation”: 20% (paediatric recurrent refractory sarcoma; 8 mg/kg).
C[C@@H]1NC(=O)[C@H](CCCCNC(=O)CO/N=C/C(=O)NCCCC[C@@H]2NC(=O)[C@@H](Cc3ccccc3)NC(=O)[C@H](CC(=O)O)NC(=O)CNC(=O)[C@H](CCCNC(=N)N)NC2=O)NC(=O)CNC(=O)[C@@H]2CCCN2C(=O)[C@H](CCCCNC(=O)CO/N=C/C(=O)NCCCC[C@@H]2NC(=O)[C@@H](Cc3ccccc3)NC(=O)[C@H](CC(=O)O)NC(=O)CNC(=O)[C@H](CCCNC(=N)N)NC2=O)NC(=O)[C@H](CCCCNC(=O)CN2CCCNCCNCCCNCC2)NC(=O)[C@H](CCCCNC(=O)CO/N=C/C(=O)NCCCC[C@@H]2NC(=O)[C@@H](Cc3ccccc3)NC(=O)[C@H](CC(=O)O)NC(=O)CNC(=O)[C@H](CCCNC(=N)N)NC2=O)NC(=O)CNC(=O)[C@@H]2CCCN2C(=O)[C@H](CCCCNC(=O)CO/N=C/C(=O)NCCCC[C@@H]2NC(=O)[C@@H](Cc3ccccc3)NC(=O)[C@H](CC(=O)O)NC(=O)CNC(=O)[C@H](CCCNC(=N)N)NC2=O)NC1=O [copper-64 labelled] has a tissue uptake of 0.73 ± 0.07 %ID/g (normal mice, heart; intravenous, 0.74 MBq, 24 h post-injection).
O=C(Nc1ccc2c(c1)B(O)OC2)c1cccc(OCc2ccccc2)c1 gave a membrane retention of 16.9% (PAMPA; 200 µM, 5 h, pH 7.4).
[O-][S+]1CCc2nc(N3CCC(c4ncc(Cl)cn4)CC3)nc(NC3(CO)CCC3)c21 (centres unmarked) — result for “adverse event incidence”: 16.7% (measured: Diarrhoea; healthy male humans; 36 mg single dose).
Cn1nc(NS(C)(=O)=O)c2c(Cl)ccc(-n3c([C@H](Cc4cc(F)cc(F)c4)NC(=O)Cn4nc(C(F)F)c5c4C(F)(F)[C@@H]4C[C@H]54)nc4nc(OCCC(F)(F)F)ccc4c3=O)c21 — result for “drug-related adverse events”: 0% (measured: blood triglycerides increased; human; 25 mg, powder in bottle).
With CC(C)[C@@H]1NC(=O)CNC(=O)[C@H](CC(N)=O)NC(=O)[C@H](CCCNC(=N)N)NC(=O)[C@H](Cc2ccc(O)cc2)NC(=O)[C@H](C(C)C)NC(=O)[C@@H](NC(=O)[C@@H](NC(=O)[C@H](CC(N)=O)NC(=O)[C@H](Cc2c[nH]c3ccccc23)NC(=O)[C@H](C)NC(=O)[C@H](Cc2ccccc2)NC(=O)CN)C(C)C)CSSC[C@@H](C(=O)N[C@@H](Cc2cnc[nH]2)C(=O)N[C@@H](CCCNC(=N)N)C(=O)N[C@@H](CCCNC(=N)N)C(=O)N[C@@H](C)C(=O)N[C@@H](CC(N)=O)C(N)=O)NC(=O)[C@H](C(C)C)NC(=O)[C@H](CCCNC(=N)N)NC1=O the monocytes was 2.65 ± 0.27% (ICR mice, blood; intraperitoneal, 5 mg/kg, day 5).
CC[C@H](C)[C@H](NC(=O)[C@H](CCCCN)NC(=O)[C@H](CCC(=O)O)NC(=O)[C@H](CCCCN)NC(=O)[C@H](CO)NC(=O)[C@H](CCCCN)NC(=O)[C@H](CCCNC(=N)N)NC(=O)[C@H](Cc1ccccc1)NC(=O)[C@H](Cc1ccccc1)NC(=O)[C@H](CC(=O)O)NC(=O)CNC(=O)[C@H](CC(C)C)NC(=O)[C@@H](N)CC(C)C)C(=O)NCC(=O)N[C@@H](CCCCN)C(=O)N[C@@H](CCC(=O)O)C(=O)N[C@@H](Cc1ccccc1)C(=O)N[C@@H](CCCCN)C(=O)N[C@@H](CCCNC(=N)N)C(=O)N[C@H](C(=O)N[C@H](C(=O)N[C@@H](CCC(N)=O)C(=O)N[C@@H](CCCNC(=N)N)C(=O)N[C@H](C(=O)N[C@@H](CCCCN)C(=O)N[C@@H](CC(=O)O)C(=O)N[C@@H](Cc1ccccc1)C(=O)N[C@@H](CC(C)C)C(=O)N[C@@H](CCCNC(=N)N)C(=O)N[C@@H](CC(N)=O)C(=O)N[C@@H](CC(C)C)C(=O)N[C@H](C(=O)N1CCC[C@H]1C(=O)N[C@@H](CCCNC(=N)N)C(=O)N[C@H](C(=O)N[C@@H](CCC(=O)O)C(=O)N[C@@H](CO)C(=O)O)[C@@H](C)O)C(C)C)[C@@H](C)CC)C(C)C)[C@@H](C)CC — result for “remaining intact peptide”: 2.91% (LC-MS; 50% pooled human serum in Tris-HCl buffer; 40 µM, 2 h, pH 7.5, 37 °C; reference: 0 h value).
For O=S(=O)(Nc1ccccc1)c1ccc(NC(=S)Nc2ccccc2)cc1, “mean corpuscular volume” read 47.5 fL (mouse, male, blood; oral, 80 mg/kg daily, 14 days).
Clc1ccc(-c2cc(Cl)c(Cl)cc2Cl)cc1Cl: “dose fraction in milk fat” 91% (whole cow milk; 200 nM nominal).
O=C1Nc2cc3[nH]nc(-c4ccncc4)c3cc2CN1Cc1ccccc1 — result for “patients with infusion reaction”: 22% (CTCAE v4.03; advanced solid tumour patients; intravenous, 6.4 mg/kg).
The mortality of C=C(CN(C(=O)c1c(C(F)F)nn(C)c1F)C1CC1)c1ccc(Cl)cc1Cl is reported as 20% (static acute toxicity test; zebrafish (Brachydanio rerio); 0.833 mg a.i./L, 72 h).
CO[C@H]1C[C@@H]2CC[C@@H](C)[C@@](O)(O2)C(=O)C(=O)N2CCCC[C@H]2C(=O)O[C@H]([C@H](C)C[C@@H]2CC[C@@H](OC(=O)NCCOCCOCCOCCOCCOCCOCCOCCOCCC(=O)N3CCc4cc(Cn5nc(-c6ccc7oc(N)nc7c6)c6c(N)ncnc65)ccc4C3)[C@H](OC)C2)C[C@@H](O)[C@H](C)/C=C(\C)[C@@H](O)[C@@H](OC)C(=O)[C@H](C)C[C@H](C)/C=C/C=C/C=C/1C — result for “incidence of Diarrhea TRAE”: 0% (patients with advanced solid tumours; intravenous, dose not given, grade ≥3).

Excerpt of the above:
O=C(Nc1ccc2c(c1)B(O)OC2)c1cccc(OCc2ccccc2)c1 gave a membrane retention of 16.9% (PAMPA; 200 µM, 5 h, pH 7.4).
